Measured values gathered from unrelated publications.
Each line is one published result; not all experiments were run side by side. Values joined by “and” are separate records of one study, mostly repeats; a detail may differ. ± marks the error that the study gave.
FGFR1: Fibroblast growth factor receptor 1 (FGFR1, Homo sapiens, UniProt P11362)
Chain of UniProt P11362 (whole entry, looked up): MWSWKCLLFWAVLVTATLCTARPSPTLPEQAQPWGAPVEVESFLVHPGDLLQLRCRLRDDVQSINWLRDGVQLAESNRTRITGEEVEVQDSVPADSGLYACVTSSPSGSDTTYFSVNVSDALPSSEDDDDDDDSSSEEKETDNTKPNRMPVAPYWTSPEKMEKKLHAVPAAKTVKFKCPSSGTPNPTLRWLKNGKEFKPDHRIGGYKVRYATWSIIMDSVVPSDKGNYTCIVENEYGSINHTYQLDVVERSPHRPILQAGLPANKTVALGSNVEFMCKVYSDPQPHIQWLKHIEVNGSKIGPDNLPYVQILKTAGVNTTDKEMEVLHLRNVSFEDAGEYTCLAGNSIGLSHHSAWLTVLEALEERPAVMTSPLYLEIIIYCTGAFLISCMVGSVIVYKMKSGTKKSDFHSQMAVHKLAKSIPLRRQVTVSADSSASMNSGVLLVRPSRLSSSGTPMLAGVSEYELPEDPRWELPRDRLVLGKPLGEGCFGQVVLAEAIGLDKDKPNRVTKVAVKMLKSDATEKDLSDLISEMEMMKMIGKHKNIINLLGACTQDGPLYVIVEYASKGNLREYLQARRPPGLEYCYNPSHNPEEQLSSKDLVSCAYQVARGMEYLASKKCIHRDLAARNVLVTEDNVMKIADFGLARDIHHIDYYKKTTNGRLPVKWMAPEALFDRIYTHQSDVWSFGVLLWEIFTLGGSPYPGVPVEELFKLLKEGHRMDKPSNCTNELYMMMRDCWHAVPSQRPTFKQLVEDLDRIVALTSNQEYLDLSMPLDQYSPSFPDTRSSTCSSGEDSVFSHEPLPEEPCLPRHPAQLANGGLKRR
Chain of UniProt P11511 (whole entry, looked up): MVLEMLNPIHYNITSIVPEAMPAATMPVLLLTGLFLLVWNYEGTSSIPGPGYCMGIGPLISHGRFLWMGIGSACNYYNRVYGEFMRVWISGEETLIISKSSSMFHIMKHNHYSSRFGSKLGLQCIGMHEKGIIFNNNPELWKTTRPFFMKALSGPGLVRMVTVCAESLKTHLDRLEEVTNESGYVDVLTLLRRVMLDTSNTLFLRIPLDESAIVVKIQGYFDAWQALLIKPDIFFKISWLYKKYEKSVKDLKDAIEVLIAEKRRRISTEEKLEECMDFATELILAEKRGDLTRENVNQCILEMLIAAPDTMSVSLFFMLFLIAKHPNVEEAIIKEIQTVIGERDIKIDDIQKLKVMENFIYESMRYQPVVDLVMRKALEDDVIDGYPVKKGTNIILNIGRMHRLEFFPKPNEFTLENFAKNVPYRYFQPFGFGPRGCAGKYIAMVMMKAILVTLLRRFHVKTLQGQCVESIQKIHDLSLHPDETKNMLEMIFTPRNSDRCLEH
Chain of UniProt P31424 (whole entry, looked up): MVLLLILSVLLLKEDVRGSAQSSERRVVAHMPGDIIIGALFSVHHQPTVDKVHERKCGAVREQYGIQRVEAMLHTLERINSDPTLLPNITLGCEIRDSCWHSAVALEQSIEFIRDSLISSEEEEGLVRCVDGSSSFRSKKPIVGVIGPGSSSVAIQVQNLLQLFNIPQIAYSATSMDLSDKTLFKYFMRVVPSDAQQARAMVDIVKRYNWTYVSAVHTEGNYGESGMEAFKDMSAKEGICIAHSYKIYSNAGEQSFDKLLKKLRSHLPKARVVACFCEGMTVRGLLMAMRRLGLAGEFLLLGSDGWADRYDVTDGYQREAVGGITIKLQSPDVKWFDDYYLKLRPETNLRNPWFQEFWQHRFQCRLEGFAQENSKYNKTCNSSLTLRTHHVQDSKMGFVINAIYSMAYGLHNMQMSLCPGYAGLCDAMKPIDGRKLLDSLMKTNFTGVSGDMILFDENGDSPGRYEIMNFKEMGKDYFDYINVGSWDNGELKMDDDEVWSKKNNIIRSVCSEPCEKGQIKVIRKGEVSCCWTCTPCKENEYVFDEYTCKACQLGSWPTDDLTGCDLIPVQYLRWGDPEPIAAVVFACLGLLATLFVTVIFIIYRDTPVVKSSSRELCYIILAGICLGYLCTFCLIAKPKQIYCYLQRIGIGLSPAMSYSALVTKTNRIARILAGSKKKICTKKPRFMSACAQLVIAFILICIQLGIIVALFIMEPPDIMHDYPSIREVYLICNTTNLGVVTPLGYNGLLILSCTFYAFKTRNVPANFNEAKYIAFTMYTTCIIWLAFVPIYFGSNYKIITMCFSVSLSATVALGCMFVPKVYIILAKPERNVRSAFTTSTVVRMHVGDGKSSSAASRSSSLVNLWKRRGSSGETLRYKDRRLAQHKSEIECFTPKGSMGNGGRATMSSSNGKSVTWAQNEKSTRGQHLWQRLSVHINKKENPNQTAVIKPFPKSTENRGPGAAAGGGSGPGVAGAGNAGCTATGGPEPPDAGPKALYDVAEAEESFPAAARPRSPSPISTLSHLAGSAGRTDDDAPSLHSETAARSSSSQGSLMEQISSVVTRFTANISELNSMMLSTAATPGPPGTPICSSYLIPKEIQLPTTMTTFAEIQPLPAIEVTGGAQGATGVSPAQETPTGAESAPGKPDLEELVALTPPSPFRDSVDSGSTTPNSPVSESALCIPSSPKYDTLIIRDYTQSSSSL
Chain of UniProt P00784 (whole entry, looked up): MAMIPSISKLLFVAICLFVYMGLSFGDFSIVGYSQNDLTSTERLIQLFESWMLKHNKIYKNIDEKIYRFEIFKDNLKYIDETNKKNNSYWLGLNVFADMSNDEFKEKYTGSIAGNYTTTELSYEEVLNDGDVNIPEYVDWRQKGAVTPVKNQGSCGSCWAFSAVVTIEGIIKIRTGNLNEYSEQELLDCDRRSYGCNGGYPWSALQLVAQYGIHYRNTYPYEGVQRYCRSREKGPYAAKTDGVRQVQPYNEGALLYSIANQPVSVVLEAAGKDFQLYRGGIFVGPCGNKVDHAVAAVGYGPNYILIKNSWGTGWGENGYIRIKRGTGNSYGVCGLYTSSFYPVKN
Chain of UniProt Q9Y251 (whole entry, looked up): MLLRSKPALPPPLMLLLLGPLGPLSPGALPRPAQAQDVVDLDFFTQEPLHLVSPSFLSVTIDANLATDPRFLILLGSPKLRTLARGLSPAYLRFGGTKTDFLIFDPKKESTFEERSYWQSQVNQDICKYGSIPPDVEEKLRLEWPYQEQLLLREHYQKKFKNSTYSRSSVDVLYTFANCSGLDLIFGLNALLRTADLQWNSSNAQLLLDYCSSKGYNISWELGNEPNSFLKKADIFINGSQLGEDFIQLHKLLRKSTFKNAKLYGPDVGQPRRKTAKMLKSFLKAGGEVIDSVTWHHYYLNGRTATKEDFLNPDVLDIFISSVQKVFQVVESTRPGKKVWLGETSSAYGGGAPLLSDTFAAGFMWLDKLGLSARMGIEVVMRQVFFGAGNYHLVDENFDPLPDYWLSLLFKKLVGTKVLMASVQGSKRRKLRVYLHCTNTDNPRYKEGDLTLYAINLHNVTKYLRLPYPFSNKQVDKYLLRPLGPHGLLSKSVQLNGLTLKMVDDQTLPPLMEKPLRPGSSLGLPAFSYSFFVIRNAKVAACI
Chain of UniProt P08546 (whole entry, looked up): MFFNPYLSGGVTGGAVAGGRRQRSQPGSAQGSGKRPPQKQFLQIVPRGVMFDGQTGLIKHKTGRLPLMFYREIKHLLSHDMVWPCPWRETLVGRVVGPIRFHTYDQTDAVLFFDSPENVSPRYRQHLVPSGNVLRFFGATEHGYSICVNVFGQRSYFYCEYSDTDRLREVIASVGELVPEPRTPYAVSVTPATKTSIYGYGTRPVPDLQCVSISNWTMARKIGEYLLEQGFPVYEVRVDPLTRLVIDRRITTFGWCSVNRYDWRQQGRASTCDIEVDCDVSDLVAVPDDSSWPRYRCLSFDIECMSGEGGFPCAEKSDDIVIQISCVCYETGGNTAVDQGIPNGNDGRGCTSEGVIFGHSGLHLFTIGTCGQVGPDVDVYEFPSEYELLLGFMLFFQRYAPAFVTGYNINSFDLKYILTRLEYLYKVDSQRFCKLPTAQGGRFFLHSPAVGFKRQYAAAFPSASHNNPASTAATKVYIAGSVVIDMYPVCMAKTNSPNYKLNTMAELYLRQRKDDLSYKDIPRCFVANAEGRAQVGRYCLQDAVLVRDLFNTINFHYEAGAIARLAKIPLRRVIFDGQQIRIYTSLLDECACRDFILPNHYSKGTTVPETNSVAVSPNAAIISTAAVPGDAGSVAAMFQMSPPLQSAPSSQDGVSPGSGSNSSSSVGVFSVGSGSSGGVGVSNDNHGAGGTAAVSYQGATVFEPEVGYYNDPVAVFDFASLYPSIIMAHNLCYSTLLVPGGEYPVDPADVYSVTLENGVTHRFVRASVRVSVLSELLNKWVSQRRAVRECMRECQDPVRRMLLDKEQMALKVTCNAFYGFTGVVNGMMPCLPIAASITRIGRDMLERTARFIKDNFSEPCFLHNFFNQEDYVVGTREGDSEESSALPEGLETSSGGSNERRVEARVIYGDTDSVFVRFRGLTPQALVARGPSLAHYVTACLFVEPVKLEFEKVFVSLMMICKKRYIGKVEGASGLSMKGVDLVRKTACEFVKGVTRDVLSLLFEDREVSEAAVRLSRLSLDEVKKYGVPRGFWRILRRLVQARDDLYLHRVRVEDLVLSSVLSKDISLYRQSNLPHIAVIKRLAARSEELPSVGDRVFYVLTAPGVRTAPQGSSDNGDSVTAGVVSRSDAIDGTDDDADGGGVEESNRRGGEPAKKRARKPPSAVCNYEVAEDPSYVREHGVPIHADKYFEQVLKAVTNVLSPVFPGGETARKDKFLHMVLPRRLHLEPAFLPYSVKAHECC
Chain of UniProt P13346 (whole entry, unmodified, looked up): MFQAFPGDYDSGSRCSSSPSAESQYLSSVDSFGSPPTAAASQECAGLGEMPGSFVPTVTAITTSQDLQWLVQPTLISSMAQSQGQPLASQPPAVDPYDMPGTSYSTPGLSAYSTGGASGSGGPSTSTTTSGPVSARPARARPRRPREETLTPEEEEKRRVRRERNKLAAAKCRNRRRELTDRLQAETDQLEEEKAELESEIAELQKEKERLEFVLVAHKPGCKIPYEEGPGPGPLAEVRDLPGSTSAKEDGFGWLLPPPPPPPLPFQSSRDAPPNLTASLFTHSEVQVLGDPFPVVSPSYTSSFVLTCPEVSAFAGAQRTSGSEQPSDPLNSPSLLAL

SMILES | target | assay | test system | conditions | IC50
CCCCCCc1ccc(S(=O)(=O)N2CC2C(=O)N(CC)CC)cc1 (centres unmarked) | P4HB (Homo sapiens, UniProt P07237) | enzyme activity, inhibitor, absorbance | – | pH 7.6 | > 200 µM
c1ccc(-c2cc3ccccc3o/c2=N\c2ccc3c(c2)OCO3)cc1 | PTGS2 (Homo sapiens, UniProt P35354) | enzyme activity, inhibitor | – | – | 0.014 µM
O=C1CC(c2ccoc2)c2ccc(NC(=O)c3ccccc3)cc2N1 (centres unmarked) | Aromatase (CYP19A1, Homo sapiens, UniProt P11511) | enzyme activity, inhibitor, fluorescence | – | – | 72 µM and 72.9 µM
O=C(NO)[C@H](Cc1ccc(O)cc1)n1cc(CNS(=O)(=O)c2ccc(-c3ccccn3)s2)nn1 | ERAP2 (Homo sapiens, UniProt Q6P179) | enzyme activity, inhibitor, fluorescence | – | – | 0.47 µM
COc1cc2nccc(Oc3ccc4sc(NCC(C)C)nc4c3)c2cc1C(N)=O | FGFR1 | – | – | – | > 10 µM
CCc1[nH]c(C(=O)N[C@@H]2CCN(c3nnc(C(C)(C)O)s3)C[C@@H]2OC)nc1Cl | DNA gyrase subunit B (Staphylococcus aureus, UniProt P0A0K8) | enzyme activity, inhibitor, ADP detection | – | – | 0.376 µM
C=CC(=O)N1CCCCC1C(=O)O (centres unmarked) | Protein FosB, ΔFosB isoform (Fosb, Mus musculus, UniProt P13346) | ΔFOSB homodimer DNA binding, fluorescence polarization | – | 15 min, together with: TMR-cdk5 oligonucleotide | 96.8 ± 7.2 µM
CN(Cc1cnc2ccccc2n1)C(=O)Nc1nc(-c2ccco2)n[nH]1 | Single-stranded DNA cytosine deaminase (AICDA, Homo sapiens, UniProt Q9GZX7) | deaminase activity, inhibitor, alkaline cleavage | 293T lysate, His-tagged AID | pH 7.2, 37 °C | 460 µM
O=c1[nH]c(=O)c2ncn(CCOCP(=O)(O)OP(=O)(O)OP(=O)(O)O)c2[nH]1 | DNA polymerase catalytic subunit (Human cytomegalovirus, UniProt P08546) | enzyme activity, inhibitor, radiometric | – | – | > 100 µM
N#Cc1cnc(Nc2nc3ccccc3o2)nc1-c1ccc(Br)cc1 | Grm5 (Rattus norvegicus, UniProt P31424) | calcium signal, antagonist | – | – | 4.12 µM
CC/C(=C\c1ccc(OCC(=O)NC(C(=O)N2CCOCC2)c2ccccc2)cc1)[N+](=O)[O-] (centres unmarked) | Papain (Carica papaya, UniProt P00784) | enzyme activity, inhibitor, fluorescence | – | pH 5.5 | 11.7 µM
CCc1nc2ccccn2c1C(=O)c1cc(Br)c(O)c(C#N)c1 | Solute carrier family 22 member 12 (Rattus norvegicus, UniProt Q3ZAV1, M481I/N35S/Y365F) | urate uptake, inhibitor, LC-MS/MS | HEK-293T cells | – | 0.07 µM
COc1cc2nccc(Oc3ccc(NC(=S)NC4CC4)c(Cl)c3)c2cc1C(=O)N(C)C | FGFR1 | – | – | – | 8.13 µM
O=C(O)[C@@H]1[C@@H](OCCNC(=O)C(F)(F)F)[C@H](O)[C@@H](O)[C@@H]2O[C@@H]21 | Heparanase (HPSE, Homo sapiens, UniProt Q9Y251) | enzyme activity, inhibitor | – | pH 5, with preincubation | 1.5 µM
O=C(Nc1ccc(Cl)c(NCc2cccnc2)c1)c1ccc(Cl)c(C(F)(F)F)c1 | DDR1 (Homo sapiens, UniProt Q08345) | enzyme activity, inhibitor, mobility shift | – | – | 0.187 µM
O=C(NCCCCc1ccccc1)n1c(=O)oc2cc(-c3ccc(F)cc3)ccc21 | Acid ceramidase (ASAH1, Homo sapiens, UniProt Q13510) | cellular enzyme activity, LC-MS | SW-403 | 3 h | 0.825 µM
COc1ccc([C@H]2N[C@H](C(=O)O)Cc3c2[nH]c2ccccc32)c(OC)c1 | MEP cytidylyltransferase IspD (Plasmodium falciparum, UniProt Q8I273) | enzyme activity, inhibitor, fluorimetric pyrophosphate | – | 60 nM enzyme | > 5 µM
